Measurements collected from several papers.
Parts stem from different laboratories: compare values within a part only.

Block 1 — method: protein binding microarray; form: double-stranded DNA, one strand shown; matrix: in vitro; concentration: not given; reference: not given; reading: higher = stronger binding
Target: Histone acetyltransferase KAT6A, winged helix 1, GST fusion (KAT6A, Homo sapiens, UniProt Q92794, residues 1-85)
Notes: 8-mer, flanks averaged, mean of 2 arrays, mostly near background
Construct (chain): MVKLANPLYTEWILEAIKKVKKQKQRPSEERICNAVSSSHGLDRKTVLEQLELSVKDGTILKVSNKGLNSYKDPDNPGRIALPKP
Sequence | E-score
CCTCGTCA | -0.124
ACGACATC | -0.0337
GATACTCA | 0.0471
AGGTGTGG | -0.113
AACGCATC | 0.107
AAGTCGTA | -0.225
GTTGTGTA | -0.0857
ATTATTCA | -0.181
GAGACTGA | -0.168
CTCATCCA | -0.222
GATAGCTA | -0.175
GAAGCTAC | -0.0561
AGGCCCAG | -0.217
CGGATTTA | 0.19
AAATGCAA | -0.238
ATGCTCCC | -0.0127
CCCTCCGA | -0.00445
CGGTCGCC | 0.257
GCCTAATA | 0.0535
ATACCTAG | -0.0669
CACCCAGG | -0.207
AAACTGGA | -0.234
ATGACGTC | 0.113
CGCGCACG | 0.425
CATCTCAA | -0.213

Block 2 — method: universal PBM; form: double-stranded DNA, one strand shown; matrix: in vitro; concentration: 600 nM; reading: higher = stronger binding
Target: Sal-like protein 4, full length isoform A (SALL4, Homo sapiens, UniProt Q9UJQ4, residues 1-1053)
UniProt Q9UJQ4, sequence (whole entry, looked up): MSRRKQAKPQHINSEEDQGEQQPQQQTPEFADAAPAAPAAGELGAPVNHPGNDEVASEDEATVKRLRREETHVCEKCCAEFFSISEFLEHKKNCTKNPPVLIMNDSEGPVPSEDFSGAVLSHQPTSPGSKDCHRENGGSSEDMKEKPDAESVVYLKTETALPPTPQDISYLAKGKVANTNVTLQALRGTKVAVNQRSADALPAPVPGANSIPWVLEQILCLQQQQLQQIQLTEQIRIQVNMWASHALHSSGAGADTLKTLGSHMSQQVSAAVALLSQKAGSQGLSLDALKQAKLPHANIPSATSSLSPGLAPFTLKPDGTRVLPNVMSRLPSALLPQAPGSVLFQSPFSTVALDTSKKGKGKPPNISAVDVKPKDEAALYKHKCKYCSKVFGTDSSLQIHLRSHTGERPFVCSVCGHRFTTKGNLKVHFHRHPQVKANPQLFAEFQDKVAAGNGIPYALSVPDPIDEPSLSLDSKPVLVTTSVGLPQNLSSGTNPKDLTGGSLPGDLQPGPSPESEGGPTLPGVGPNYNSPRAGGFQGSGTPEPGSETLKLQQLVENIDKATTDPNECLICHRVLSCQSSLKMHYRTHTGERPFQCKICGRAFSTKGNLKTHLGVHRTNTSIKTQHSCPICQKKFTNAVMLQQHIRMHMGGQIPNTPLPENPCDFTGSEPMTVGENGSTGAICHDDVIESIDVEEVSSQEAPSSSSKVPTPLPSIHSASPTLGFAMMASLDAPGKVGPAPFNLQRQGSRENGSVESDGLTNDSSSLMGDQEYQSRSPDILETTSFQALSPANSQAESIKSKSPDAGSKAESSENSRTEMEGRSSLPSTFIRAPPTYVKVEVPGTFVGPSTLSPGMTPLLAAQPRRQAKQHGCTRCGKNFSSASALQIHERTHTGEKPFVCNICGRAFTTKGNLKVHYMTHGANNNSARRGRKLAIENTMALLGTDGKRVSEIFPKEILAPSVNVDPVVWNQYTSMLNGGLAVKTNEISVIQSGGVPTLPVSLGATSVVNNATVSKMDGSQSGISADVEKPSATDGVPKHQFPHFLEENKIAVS
Notes: 8-mer, flanks averaged, mean of replicates
Sequence | E-score
CGTATCAG | -0.0861
AGGTACTG | -0.0616
CCATCGGA | -0.269
GCGGGAGC | -0.313
AGTGTTAA | 0.238
CGGGTTCA | -0.239
ACACCACA | -0.0966
CAAGCCGC | -0.399
ACCAGGCA | -0.197
CTGTACAA | 0.116
GACTAACC | -0.191
AAATCACT | 0.209
CAAGCGTG | -0.014
CTACCCAG | -0.105
CTCCTAAG | -0.177
CGTTCGCC | -0.121
TAAAAGTA | 0.294
AACGGAAT | 0.132
ACAGGAAC | 0.0152
AGGCCAGC | -0.304
ACTTATCC | 0.105
GATTCTAC | -0.046

Block 3 — method: protein-binding microarray; form: double-stranded DNA, one strand shown; matrix: in vitro; concentration: 940 nM top; notes: 60-bp whole probe; added: salmon DNA 0.4 mg/ml; reference: random background probes; reading: higher = stronger binding; shared flanks, not repeated: GCCTAGCAC … GTCTTGATTCGCTTGACGCTGCTG
Target: Interferon regulatory factor 5, full length, phosphomimetic (IRF5, Homo sapiens, UniProt Q13568-2, residues 1-514, S451D/S453D/S456D/S462D)
Sequence | fitted relative affinity [z-score]
CATCCGTTTCTTCTAGACTTGTGCTAG | 1.31
TTATGTTTCCTTATCCTTTAGTGCTAG | 2.01
TTTTTTTTCTACTTCTGTTTGTGCTAG | 1.75
TCGCACACATACGGCTTCTCGTGCTAG | 0.177
TTAGGTTTCGGTTTCGGTGAGTGCTAG | 15.9
TCAGGAAACCGGAAAGGCACTGTGCTA | -0.418
ACGTAGAAGGAAGAAGCACGGTGCTAG | -0.541
GGCGGTATCGGTCTCGGGACGTGCTAG | 8.63
TTAGAACTGGGGTTTCGGTTAGTGCTA | 5.66
GACGGTGTCGGGTATCGGGACGTGCTA | 0.712
TTAGATATGAGTCTCGATTAGTGCTAG | 2.39
TCAACTAGGAGTTTTCAGACTGTGCTA | -0.37
GACGGACTGGGGACTGGGGAAGTGCTA | -0.413
TTAGGTTTCGACTATCGGTTTGTGCTA | 9.46
TCAGTTTTGTGTCTGGGACTGTGCTAG | 0.303
TTAGATCTCAGAGTGGATTAGTGCTAG | -0.203
GGACACGGATGCGGTCTGCCGTGCTAG | -0.384
TCAAGTCTGGGCTACAACACTGTGCTA | -0.604

Block 4 — method: protein-binding microarray; form: double-stranded DNA, one strand shown; matrix: in vitro; concentration: 0.8 µM; notes: whole 60-bp probe, no competitor; reading: higher = stronger binding; shared flanks, not repeated: … GTCTTGATTCGCTTGACGCTGCTG
Target: Centromere-binding protein 1, full length, N-terminal tag (CBF1, Saccharomyces cerevisiae, UniProt P17106, residues 1-351)
UniProt P17106, sequence (whole entry, looked up): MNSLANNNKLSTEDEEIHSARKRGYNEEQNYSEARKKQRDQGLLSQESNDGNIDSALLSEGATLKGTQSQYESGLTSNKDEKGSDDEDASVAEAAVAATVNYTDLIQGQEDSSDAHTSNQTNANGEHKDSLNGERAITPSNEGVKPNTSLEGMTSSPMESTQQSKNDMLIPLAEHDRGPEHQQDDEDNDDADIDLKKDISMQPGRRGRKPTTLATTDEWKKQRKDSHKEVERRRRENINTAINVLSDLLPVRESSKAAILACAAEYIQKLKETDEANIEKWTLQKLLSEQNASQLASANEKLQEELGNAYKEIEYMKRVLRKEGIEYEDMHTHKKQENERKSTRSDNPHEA
Sequence | fluorescence intensity
GAAAATATTTATCGTCACGAATAAATCCCGTGATAG | 1860 a.u.
CTAGCACTGAAAAACCACGCCACTGAGTGCGGATTC | 504 a.u.
GAAATTGTTTTAATTATCGTGACTTGTTGTTTTTAG | 762 a.u.
CCTAACTACTATACCCACGATATATAGCTTCGTACA | 511 a.u.
CCTAACTACTATAGTGACGGTACATAGCTTCGTACA | 476 a.u.
GAACAAATGCATCTGCAGGTGTACTGCCATTATTAG | 509 a.u.
TGTACGAAGCTATTTTATGTGATTATAGTAGTTAGG | 495 a.u.
CTAATTTCTCGCGAGCTGGTGATGAGCCAAATGTTC | 507 a.u.
CTAACTCCAATTAAGCACCACCTAGTGCGTCTATTC | 486 a.u.
GAAATAAAACAAATCCACGAGCTGAAGGTAACATAG | 531 a.u.
CTATATTTAATTCAAGGTCATGTGGATTTCAAATTC | 4010 a.u.
GAAATATATCTCATTCATCTGATTCTGTGAGGTTAG | 521 a.u.
GAATCAGGTCCGGGTCACACCACTACCCTTACTTAG | 925 a.u.
CTATATTGAGTTTGCCACATGAGCGGTATACGATTC | 557 a.u.
GAAGGGGTGCGTGGGCGTGCGCTGCTCGAGGCATAG | 545 a.u.
CTACAATCGAGAGACTTCGTGATTTGTAAAAGTTTC | 569 a.u.
GAATTTCTCACGCTGATGATGATGACAATTTTATAG | 581 a.u.

Repeated from above (block 1):
Sequence | E-score
ATTATTCA | -0.181
GAGACTGA | -0.168
CTCATCCA | -0.222
GATAGCTA | -0.175
GAAGCTAC | -0.0561
